Assay results of several laboratories.
Lines come from different studies, so protocols differ.
Matrix: plasma

O=C(/C=C/c1ccc(O)cc1)c1ccc(O)cc1O — half-life (Sprague-Dawley rat; intravenous, 2 mg/kg, single dose): 0.7 h
Oc1ccc(C(c2ccc(O)cc2)(C(F)(F)F)C(F)(F)F)cc1 — half-life (male rat; oral, 110 mg/kg, single dose): 18.4 h
Oc1ccc(/C=C/c2cc(O)cc(O)c2)cc1 — half-life (male Sprague-Dawley rat; intravenous, 10 mg/kg): 0.34 h
CCc1c(-c2ccccc2)c(-c2ccccc2)nn1-c1ccccc1-c1cccc(OCC(=O)O)c1 — half-life (rat; intravenous, 2 mg/kg): 1.77 h
Cc1cc(C(=O)NC(C)(C)COc2cccc3c2C(N)=NS(=O)(=O)N3)cc(C)n1 — half-life (male Sprague-Dawley rat; oral, 30 mg/kg, single dose): 0.669 h
Cc1nc2cccc(OCC(C)(C)C(=O)NC(C)C)c2c(N)c1C(=O)O — half-life (female Sprague-Dawley rat; oral, 30 mg/kg, single dose): 1.06 h
CNC(=O)c1c(C)oc2cc(Oc3ncnc4cc(OC)c(OC)cc34)ccc12 — half-life (Sprague-Dawley rat; oral, 1 mg/kg, single dose): ~3.34 h
CCC[C@@]1(CCc2ccccc2)CC(O)=C([C@H](CC)c2cccc(NS(=O)(=O)c3ccc(C(F)(F)F)cn3)c2)C(=O)O1 — half-life (male Sprague-Dawley rat; intravenous, 1 mg/kg): 5.21 h
CCCC[C@H](NC(C)=O)C(=O)N[C@H]1CCC(=O)NC[C@@H](C(=O)N[C@@H](Cc2c[nH]c3ccccc23)C(N)=O)NC(=O)[C@H](CCCNC(=N)N)NC(=O)[C@@H](Cc2ccccc2)NC(=O)[C@H](Cc2c[nH]cn2)NC1=O — half-life (female rat; subcutaneous, 5 mg/kg/day, multiple doses, once daily): 9.29 h
CC(=O)O[C@@]12CO[C@@H]1C[C@H](O)[C@@]1(C)C(=O)[C@H](O)C3=C(C)[C@@H](OC(=O)[C@H](O)[C@@H](NC(=O)OC(C)(C)C)c4ccccc4)C[C@@](O)([C@@H](OC(=O)c4ccccc4)[C@H]21)C3(C)C — half-life (male Sprague-Dawley rat; intravenous, 10 mg/kg): 0.66 h
